Experimental data pooled from the literature.
Parts stem from different laboratories: compare values within a part only. Positions count from the first letter of the parent shown.

Series 1 — technique: protein-binding microarray; molecule type: double-stranded DNA, one strand shown; medium: in vitro; concentration: 2200 nM top; setting: 60-bp whole probe; with: salmon DNA 0.4 mg/ml; relative to: random background probes; direction: higher = stronger binding; measurement: fitted relative affinity
Target: Interferon regulatory factor 7, full length, phosphomimetic (IRF7, Homo sapiens, UniProt Q92985, residues 1-503, S471D/S472D/S475D/S476D/S477D/S483D/S484D/S487D)
Sequence of UniProt Q92985 (whole entry, unmodified, looked up): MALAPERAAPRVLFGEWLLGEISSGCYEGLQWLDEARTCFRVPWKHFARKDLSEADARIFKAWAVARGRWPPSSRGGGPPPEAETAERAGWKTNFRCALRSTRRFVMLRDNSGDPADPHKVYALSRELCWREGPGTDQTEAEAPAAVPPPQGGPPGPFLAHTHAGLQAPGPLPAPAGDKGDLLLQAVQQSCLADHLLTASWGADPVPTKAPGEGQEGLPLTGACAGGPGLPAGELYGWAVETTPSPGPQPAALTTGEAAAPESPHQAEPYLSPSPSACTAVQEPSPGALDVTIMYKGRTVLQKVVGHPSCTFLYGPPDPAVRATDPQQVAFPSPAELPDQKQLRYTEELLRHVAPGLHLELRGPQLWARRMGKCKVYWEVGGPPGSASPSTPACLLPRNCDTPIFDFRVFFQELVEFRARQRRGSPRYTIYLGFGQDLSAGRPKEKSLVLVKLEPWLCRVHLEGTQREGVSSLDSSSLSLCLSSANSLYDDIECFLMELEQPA
All sequences stand within: GCCTAGCACT … GTGCTAGGTCTTGATTCGCTTGACGCTGCTG
TAGTTATCGGTCTCGGTTA: 1.6 z-score
TAGGTTTCCTTATCCGTTA: 1.96 z-score
TTGGACTGGGTTTCGGTTA: 4.13 z-score
TAGATATCAGGCTCGATTA: -0.121 z-score
CTTTTTTTCTTTTATTAGT: 3.02 z-score

Series 2 — technique: Sort-seq; refers to: YFP reporter; medium: E. coli; setting: PhoQ-PhoP variant library; with: 10 µM Mg2+; relative to: high Mg2+ state; direction: higher = stronger signaling; measurement: fold induction
Molecule: PhoQ, residues 284 288 289 292 302 303 SLANIV
PhoP, residues 12 14 15 18 19 QYCSL (Escherichia coli, UniProt P23836): 4.68
PhoP, residues 12 14 15 18 19 STHWV (Escherichia coli, UniProt P23836): 11.3
PhoP, residues 12 14 15 18 19 SHWTV (Escherichia coli, UniProt P23836): 1.3

Series 3 — technique: RNA Bind-n-Seq; molecule type: RNA; medium: in vitro; concentration: 200 nM; setting: whole 134-nt RNA, ends assumed; with: 150 mM KCl; relative to: input library; direction: higher = stronger binding; measurement: log2 enrichment
Target: Ras GTPase-activating protein-binding protein 1, full length (G3BP1, Homo sapiens, UniProt Q13283)
Sequence of UniProt Q13283 (whole entry, looked up): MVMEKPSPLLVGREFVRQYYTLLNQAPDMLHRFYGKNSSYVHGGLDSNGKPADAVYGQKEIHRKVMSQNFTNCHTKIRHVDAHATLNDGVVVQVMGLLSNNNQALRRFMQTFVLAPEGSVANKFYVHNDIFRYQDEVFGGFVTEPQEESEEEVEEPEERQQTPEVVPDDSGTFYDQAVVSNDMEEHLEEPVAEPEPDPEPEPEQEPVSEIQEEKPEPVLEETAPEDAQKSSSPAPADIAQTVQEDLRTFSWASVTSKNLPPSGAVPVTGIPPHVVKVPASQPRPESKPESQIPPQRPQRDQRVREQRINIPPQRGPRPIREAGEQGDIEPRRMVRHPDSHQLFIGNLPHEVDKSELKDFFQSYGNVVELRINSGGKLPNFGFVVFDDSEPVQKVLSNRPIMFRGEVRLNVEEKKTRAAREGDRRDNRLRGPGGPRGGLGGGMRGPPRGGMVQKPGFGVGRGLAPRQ
All sequences stand within: GGGAGUUCUACAGUCCGACGAUC … UGGAAUUCUCGGGUGUCAAGG
ACCAUGCAGGUGGGCAUCUUUAAAAAGUGGGGCAAGGGGGGGAUAGGGAGGGGGGUAACACUUUGGGAACAGGUGGUCCCAGGUCGUUUC: 1.76
UGACCCUGGUGGCAUGCGGGGAGGAAGAGGUGGCCUCAUGGAUCGUGGUGGUCCCGGUGGAAUGUUCAGAGGUGGCCGUGGUGGAGACAG: 0.419
UAUGCCACGCCCUUUGAGGACUCGAAGAUCAUGGUCUCUGACUUUGGACUCUCCAAAAUCCAGGCUGGGAACAUGCUAGGCACCGCCUGU: 0.255
ACCAUGCAGGUGGGCAUCUUUGGGAAGUGGGGCAAGGGGGGGAUAGGGAGGGGGGUAACACUUUGGGAACAGGUGGUCCCAUGUCGUUUC: 1.28
UGUCAUGGAUUCAAGUUAUUAAAAGCAUAAGUUUGGAAGACAGGCUUGCCGAAAUUGAGGACAUGAUUAAAAUUGCAGUGAAGUUUGAAA: -2.55
AGUCCUGUGCUACACAUCGUAUGUACCGAAUCGGGGAGGGGAAAGGGGUUUUUGGGGAAAGUAUUAUGUUACGCCGUUCGGAUCUGCACU: 0.296

Series 4 — target: CCNA2, cyclin fold, Cln2 fusion (human); technique: yeast growth competition, sequencing; medium: yeast; setting: strong parent motif; relative to: not given; direction: higher = stronger binding; measurement: normalised enrichment score
Parent: CDKN1A docking peptide (human); SKACRRLFGPVDS
P10M: 4.8
R6F: 1.38
P10W: 4.31
F8L: 0.541
P10A: 5.28

Repeated from above (series 4):
P10A: 5.28
P10W: 4.31
